Published values from different studies.
Lines come from different studies, so protocols differ. Values joined by “and” are separate records of one study, mostly repeats; a detail may differ.
Target: cAMP-dependent protein kinase catalytic subunit alpha (PRKACA, Homo sapiens, UniProt P17612)

Cc1[nH]nc2c1N=C(c1ccccc1Cl)c1cnc(N3CCOCC3)cc1N2
inhibition (enzyme activity, inhibitor; 0.5 µM): 49.8%

CN1CCN(Cc2ccc(NC(=O)c3cccc(C#Cc4cnc(N)c5ncccc45)c3)cc2C(F)(F)F)CC1
remaining binding (cell-free assay, competition with immobilised ligand; 0.5 µM): 69%

CNS(=O)(=O)Nc1nccc(Cc2c(C)c3ccc(Oc4ncccc4F)cc3oc2=O)c1F
remaining binding (cell-free assay, competition with immobilised ligand; 10 µM): 94%

Cc1ccc(C)c(-c2ccc3nc(NC(=O)C4CCCCC4)nn3c2)c1
remaining activity (enzyme activity, Dundee kinase panel; 10 µM): 82%

Nc1ncc(-c2cc(-c3cnn(CC(F)(F)F)c3)ncc2F)nc1C(=O)NC1CNCC(F)C1 (stereo not drawn)
remaining activity (enzyme activity; 1 µM; baseline: DMSO control): 89.8%

O=C(O)CCC(=O)c1cccc(NS(=O)(=O)c2c[nH]c3ncccc23)c1
remaining activity (kinase activity, radiometric; 10 µM): 89%

c1ccc2c(Nc3cc(C4CCC4)[nH]n3)nc(Nc3ccc4nc[nH]c4c3)nc2c1
remaining activity (enzyme activity, inhibitor; 0.25 µM): 65%

CN1CC[C@@H](COc2cnc(C#N)cc2-c2ccn3nc(NC(=O)C4CC4)cc3c2)C1
inhibition (enzyme activity, inhibitor; 1 µM): 16%

COc1cc(Nc2nccc(-c3cnn4nc(OC)ccc34)n2)cc(C(F)(F)F)c1
remaining binding (binding, competition with immobilised ligand; 1 µM): 97%

Cc1cccc(-c2ccc3nc(NC(=O)C4CCCO4)nn3c2)c1 (stereo not drawn)
remaining activity (enzyme activity, Dundee kinase panel; 10 µM): 84%

COc1ccc(NC(=O)Nc2ccc3c(c2)C(=O)N(C(C)CO)CC(C)C(CN(C)Cc2ccc4c(c2)OCO4)O3)cc1 (stereo not drawn)
remaining binding (binding, competition with immobilised ligand; 10 µM): 69%

Cc1cccc(O[C@H]2CCC[C@@H](C(C)CNCc3ccncc3)C2)c1 (relative stereo)
inhibition (enzyme activity, inhibitor; 10 µM): -3%

Cc1nc2c(F)cc(-c3nc(Nc4ccc(CNC(=O)CCCCCCC(=O)NO)cc4)ncc3F)cc2n1C(C)C
inhibition (enzyme activity, inhibitor; 1 µM): 13%

CCn1cc(C(=O)O)c(=O)c2c(N)c(F)c(NC3CCCCC3)cc21
inhibition (kinase activity; 0.1 µM, together with: ATP at Km): 0.5%

O=C=[N][Ru-4]123([n]4c5ccc(O)cc5c5c6c(c7cc(F)c[n+]1c7c54)C(=O)NC6=O)[S+]1CC[S+]2CC[S+]3CC1 (stereo not drawn)
remaining activity (enzyme activity; 100 nM, human enzyme, together with: 10 µM ATP; baseline: untreated): 72%

CNC(=O)C[C@H](Cc1ccc(C#N)cc1)NC(=O)c1cc(-c2ccc(CN[C@H](C)c3ccc(C)cc3)o2)ccc1Cl
activity vs control (enzyme activity, inhibitor; 1 µM): 107%

CC(C)=CC1OC(C)(C)C2C=C3C(=O)C(Cl)=CC(O)C3C3C(O)C4OC4C(=O)C132 (stereo not drawn)
remaining binding (cell-free assay, competition with immobilised ligand; 10 µM): 96%

COc1cc(-n2cc3cc(F)cc(C(N)=O)c3n2)cc(Cl)c1C1CC(O)(CCO)Cc2ccccc21 (stereo not drawn)
inhibition (enzyme activity, inhibitor; 10 µM): 0.52%

C=CC(=O)Nc1cccc(-c2cnc3[nH]cc(C(=O)NC(C)(C)C)c3n2)c1
inhibition (enzyme activity, inhibitor; 0.1 µM): 4%

C=CC(=O)N1CCCC(n2c(=O)c3ncccc3n(Cc3ccc(Oc4ccccc4)cc3)c2=O)C1 (stereo not drawn)
remaining binding (cell-free assay, competition with immobilised ligand; 1 µM): 94%

Cc1cnc2nc1Nc1cccc(c1)COC/C=C/COCc1cc(ccc1OCCN1CCOCC1)N2
remaining binding (binding, competition with immobilised ligand; 0.1 µM): 100%

COc1c(Cl)cccc1Nc1c(-c2ccncc2C#C[C@@]2(C)CCCN2C(=O)/C=C/CN(C)C)[nH]c2c1C(=O)NCC2
remaining binding (cell-free assay, competition with immobilised ligand; 3 µM): 79%

NC(=O)[C@@H](O)C[C@H]1CCc2sc3ncnc(O[C@H]4CC[C@H](N5CCOCC5)CC4)c3c21
inhibition (enzyme activity, inhibitor; 10 µM): 16%

N[C@H]1CC[C@H](Nc2nccc(-c3cccnc3Oc3ccc(NC(=O)NC4CC4)c4ccccc34)n2)CC1
log2 LFQ intensity (kinobead competition pulldown; HEK293/HCT116 lysate mixture; 10 µM, 1 h, 4 °C; lower = stronger competition): 22.5 and 20.4 and 22.7 and 22.8
